{"data": "Measurements gathered from unrelated publications", "target": "Serine/threonine-protein kinase 38-like (STK38L, Homo sapiens, UniProt Q9Y2H1)", "note": "Compare with care: the assays were run in different laboratories."}
{"test": "binding, competition with immobilised ligand", "setting": "1 µM", "endpoint": "remaining binding", "result": "100%", "Structure (SMILES)": "COc1cc(Nc2nccc(-c3cnn4nc(OC)ccc34)n2)cc(C(F)(F)F)c1"}
{"test": "KINOMEscan", "setting": "1 µM", "scale": "baseline: DMSO control", "endpoint": "remaining binding", "result": "92%", "Structure (SMILES)": "C=CC(=O)N1CCc2ccc(-n3c(=O)ccc4cnc5ccc(-c6cnn(C)c6)cc5c43)cc21"}
{"test": "probe labelling, inhibitor, KiNativ chemoproteomics", "system": "MOLT-4", "setting": "1 µM", "endpoint": "inhibition", "result": "-14.1%", "Structure (SMILES)": "CS(=O)(=O)Nc1cccc(-c2csc3cnc(Nc4ccc(N5CCN(CCCCCOc6cccc7c6C(=O)N(C6CCC(=O)NC6=O)C7=O)CC5)cc4)nc23)c1 (stereo not shown)"}
{"test": "enzyme activity, inhibitor", "setting": "10 µM", "endpoint": "inhibition", "result": "6%", "Structure (SMILES)": "NC(=O)[C@@H](O)C[C@H]1CCc2sc3ncnc(O[C@H]4CC[C@H](N5CCOCC5)CC4)c3c21"}
{"test": "binding, competition with immobilised ligand", "setting": "0.1 µM", "endpoint": "remaining binding", "result": "81%", "Structure (SMILES)": "Cc1cnc2nc1Nc1cccc(c1)COC/C=C/COCc1cc(ccc1OCCN1CCOCC1)N2"}
{"test": "target engagement, NanoBRET", "system": "human cells", "endpoint": "Hill slope", "result": 0.728, "Structure (SMILES)": "Cc1ccc(C(=O)Nc2ccc(CN3CCN(C)CC3)c(C(F)(F)F)c2)cc1C#Cc1cnc2cccnn12"}
{"test": "binding, competition with immobilised ligand", "setting": "1 µM", "endpoint": "remaining binding", "result": "97%", "Structure (SMILES)": "CNC(=O)C1CCN(c2cc(C)c(F)cc2NC(=O)c2ccc(-c3cc(O)ccc3C)c(C)c2)CC1"}
{"test": "enzyme activity, inhibitor", "setting": "0.1 µM", "endpoint": "inhibition", "result": "28%", "Structure (SMILES)": "CN1CCN(Cc2ccc(-c3ccc(CO[C@H]4CCC[C@@H]4NC(=O)c4cc(-c5cnn(C)c5)cnc4N)cc3)cc2)CC1"}
{"test": "binding, competition with immobilised ligand", "setting": "3 µM", "endpoint": "remaining binding", "result": "92%", "Structure (SMILES)": "COc1c(Cl)cccc1Nc1c(-c2ccncc2C#C[C@@]2(C)CCCN2C(=O)/C=C/CN(C)C)[nH]c2c1C(=O)NCC2"}
{"test": "enzyme activity, inhibitor", "setting": "0.5 µM", "endpoint": "inhibition", "result": "3%", "Structure (SMILES)": "O=C(Nc1ccc(Oc2ncnc3[nH]cc(-c4ccccc4)c23)c(F)c1)c1c2n(n(-c3cc(F)ccc3F)c1=O)CCCC2"}
{"test": "enzyme activity", "setting": "10 µM", "endpoint": "inhibition", "result": "-7%", "Structure (SMILES)": "Cc1cccc(O[C@H]2CCC[C@@H](C(C)CNCc3ccncc3)C2)c1 (relative stereo)"}
{"test": "binding, competition with immobilised ligand", "setting": "1 µM", "endpoint": "remaining binding", "result": "89%", "Structure (SMILES)": "Nc1ncc2c(n1)-c1c([nH]c3ccc(C4=CCOCC4)cc13)CCC2"}
{"test": "enzyme activity", "setting": "1 µM", "scale": "baseline: DMSO control", "endpoint": "remaining activity", "result": "97.3%", "Structure (SMILES)": "Nc1ncc(-c2cc(-c3cnn(CC(F)(F)F)c3)ncc2F)nc1C(=O)NC1CNCC(F)C1 (stereo not shown)"}
{"note": "Repeated from above:"}
{"test": "binding, competition with immobilised ligand", "setting": "1 µM", "endpoint": "remaining binding", "result": "97%", "Structure (SMILES)": "CNC(=O)C1CCN(c2cc(C)c(F)cc2NC(=O)c2ccc(-c3cc(O)ccc3C)c(C)c2)CC1"}
{"test": "KINOMEscan", "setting": "1 µM", "scale": "baseline: DMSO control", "endpoint": "remaining binding", "result": "92%", "Structure (SMILES)": "C=CC(=O)N1CCc2ccc(-n3c(=O)ccc4cnc5ccc(-c6cnn(C)c6)cc5c43)cc21"}
